# Published values gathered from unrelated publications.
# Numbered parts are unrelated; each lists some results of a single study.

# Sample 1
# SMILES: COc1cc(C(=O)N2CCC(N3CCN(C)CC3)CC2)ccc1Nc1ncc2c(n1)N(C)c1ccccc1C(=O)N2C
tested on,assay,system,setting,inhibition
CSK (mouse),KiNativ ADP probe,mouse brain tissue,"1 µM, probe site LYS1",3.2%
ABL and ARG (mouse),"probe labelling, KiNativ, measured: Lys1 site peptide",brain tissue lysate (mouse),"0.1 µM, added: ATP acyl-phosphate probe",7.9%
MINK (mouse),"probe labelling, inhibitor, KiNativ ActivX ATP probe",mouse brain lysate,"1 µM, Lys1 site peptide",5.7%
p70S6K/p70S6Kb (mouse),"probe labelling, inhibitor, KiNativ ActivX ATP probe",mouse brain lysate,0.1 µM,-10.7%
NIM1 (mouse),"probe labelling, KiNativ ATP probe",mouse brain lysate,"1 µM, LYS1 labelled site",-12.2%
mouse mTOR,"probe labelling, KiNativ ATP probe",mouse brain lysate,"1 µM, ATP site",-4%
TBK1 mouse,KiNativ profiling,mouse brain lysate,"0.1 µM, LYS1 site, added: ATP acyl phosphate probe",9.8%
human PBMC,"probe labeling, inhibitor, KiNativ profiling, measured: APVAIkVFK",cell lysate,"1 µM, LYS1 site, added: ATP acyl-phosphate probe",-0.4%
PIP4K2C (mouse),"probe labelling, KiNativ, measured: ATP site peptide",brain tissue lysate (mouse),"0.1 µM, added: ATP acyl-phosphate probe",7.5%
STLK5 (mouse),"probe labelling, inhibitor, KiNativ ActivX ATP probe",mouse brain lysate,"1 µM, activation loop peptide",7%
SLK (human),"probe labelling, KiNativ, measured: Lys1 site peptide",PBMC lysate (human),"0.1 µM, added: ATP acyl-phosphate probe",5.4%
MAP2K1 and MAP2K2 (mouse),"probe labelling, KiNativ, measured: DVkPSNILVNSR peptide, LYS2 site",brain tissue lysate (mouse),"0.1 µM, added: ATP acyl-phosphate probe",-8.4%
ITPK1,,,0.1 µM,4.5%
LIMK1 (mouse),"probe labelling, KiNativ ADP probe",mouse brain lysate,"1 µM, LYS1 labelled site",5.4%

# Sample 2
# SMILES: C=CCc1ccc(O)c(-c2ccc(O)c(CC=C)c2)c1
# Effect on: chloride current
# Technique: whole-cell voltage clamp
# ANO1 del476-501: Anoctamin-1 (ANO1, Homo sapiens, UniProt Q5XXA6, del476-501)
# Sequence of UniProt Q5XXA6 (whole entry, unmodified, looked up): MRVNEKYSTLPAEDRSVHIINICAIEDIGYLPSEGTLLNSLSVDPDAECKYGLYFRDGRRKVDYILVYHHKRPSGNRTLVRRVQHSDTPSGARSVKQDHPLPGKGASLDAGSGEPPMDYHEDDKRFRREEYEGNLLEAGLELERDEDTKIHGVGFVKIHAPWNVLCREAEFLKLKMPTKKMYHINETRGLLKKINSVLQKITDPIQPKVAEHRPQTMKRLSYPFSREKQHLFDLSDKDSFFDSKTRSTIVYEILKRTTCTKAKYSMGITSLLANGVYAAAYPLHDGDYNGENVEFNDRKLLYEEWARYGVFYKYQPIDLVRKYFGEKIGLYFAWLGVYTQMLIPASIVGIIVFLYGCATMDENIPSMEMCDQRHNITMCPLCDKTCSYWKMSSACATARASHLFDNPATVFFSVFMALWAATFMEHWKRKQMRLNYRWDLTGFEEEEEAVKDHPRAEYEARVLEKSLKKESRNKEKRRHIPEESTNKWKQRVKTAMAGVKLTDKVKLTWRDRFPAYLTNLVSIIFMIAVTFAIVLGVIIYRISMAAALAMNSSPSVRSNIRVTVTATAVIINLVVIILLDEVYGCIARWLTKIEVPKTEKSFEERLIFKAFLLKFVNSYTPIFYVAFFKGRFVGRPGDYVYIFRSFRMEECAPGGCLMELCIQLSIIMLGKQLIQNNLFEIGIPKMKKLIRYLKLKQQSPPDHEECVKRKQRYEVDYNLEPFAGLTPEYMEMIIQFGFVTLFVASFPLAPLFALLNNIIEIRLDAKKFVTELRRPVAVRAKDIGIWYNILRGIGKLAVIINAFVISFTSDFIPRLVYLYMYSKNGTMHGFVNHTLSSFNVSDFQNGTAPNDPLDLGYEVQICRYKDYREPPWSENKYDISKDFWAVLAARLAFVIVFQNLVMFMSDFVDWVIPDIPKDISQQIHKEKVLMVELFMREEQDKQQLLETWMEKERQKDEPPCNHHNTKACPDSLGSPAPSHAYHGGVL
# ANO1 del476-501/F803A: Anoctamin-1 (ANO1, Homo sapiens, UniProt Q5XXA6, del476-501/F803A)
target,mode,tested at,setting,added,IC50 [µM]
"Anoctamin-1 (ANO1, Homo sapiens, UniProt Q5XXA6, del476-501/F807A)",,,membrane voltage -100 mV,,50.6
"Anoctamin-1 (ANO1, Homo sapiens, UniProt Q5XXA6, del476-501/R631D)",inhibitor,,R605D mutant at 100 mV,,26
ANO1 del476-501,inhibitor,,20 mV voltage,300 nM Ca2+,3.14
"Anoctamin-1 (ANO1, Homo sapiens, UniProt Q5XXA6, del476-501/F628W)",inhibitor,,mutant F602W,,15.1
ANO1 del476-501/F803A,,,membrane voltage -60 mV,,14.9
ANO1 del476-501/F803A,,,membrane voltage 20 mV,,10.8
"Anoctamin-1 (ANO1, Homo sapiens, UniProt Q5XXA6, del476-501/F646A)",inhibitor,,pore pocket mutant F620A at 100 mV,300 nM Ca2+,9.57
"Anoctamin-1 (ANO1, Homo sapiens, UniProt Q5XXA6, D383A/del476-501)",,,membrane voltage 60 mV,,4.23
ANO1 del476-501,,,membrane voltage 40 mV,300 nM Ca2+,3.42
"Anoctamin-1 (ANO1, Homo sapiens, UniProt Q5XXA6, del476-501/F803W)",inhibitor,60 mV holding voltage,,,5.5
"Anoctamin-1 (ANO1, Homo sapiens, UniProt Q5XXA6, del476-501/F623A)",,,membrane voltage 20 mV,,8.81
"Anoctamin-1 (ANO1, Homo sapiens, UniProt Q5XXA6, del476-501/F628I)",inhibitor,,F602I mutant at -60 mV,,15.5
ANO1 del476-501,,,membrane voltage -100 mV,300 nM Ca2+,3.23
"Anoctamin-1 (ANO1, Homo sapiens, UniProt Q5XXA6, del476-501/F807I)",inhibitor,,F781I mutant at -40 mV,,7.23

# Sample 3
# Target: NUAK family SNF1-like kinase 2 (NUAK2, Homo sapiens, UniProt Q9H093)
# Effect on: enzyme activity
# Mode: inhibitor
# Tested at: 0.5 µM
# Baseline: control
# Construct (Q9H093 1-628): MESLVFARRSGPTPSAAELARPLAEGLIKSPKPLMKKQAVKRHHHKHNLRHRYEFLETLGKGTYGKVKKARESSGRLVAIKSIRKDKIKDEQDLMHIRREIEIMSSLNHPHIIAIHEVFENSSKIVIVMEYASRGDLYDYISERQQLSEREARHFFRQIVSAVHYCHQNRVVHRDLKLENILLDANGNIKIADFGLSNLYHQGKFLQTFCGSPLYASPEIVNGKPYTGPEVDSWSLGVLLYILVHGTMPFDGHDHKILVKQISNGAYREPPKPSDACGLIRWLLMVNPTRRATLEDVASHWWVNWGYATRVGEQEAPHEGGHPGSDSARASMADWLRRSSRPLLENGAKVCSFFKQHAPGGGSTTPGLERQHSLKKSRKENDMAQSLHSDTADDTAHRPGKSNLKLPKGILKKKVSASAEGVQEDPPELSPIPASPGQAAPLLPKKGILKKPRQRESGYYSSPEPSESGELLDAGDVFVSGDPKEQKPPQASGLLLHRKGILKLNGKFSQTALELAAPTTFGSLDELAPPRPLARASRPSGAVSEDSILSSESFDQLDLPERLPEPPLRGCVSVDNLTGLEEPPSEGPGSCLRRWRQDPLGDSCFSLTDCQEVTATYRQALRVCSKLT
Structure (SMILES),remaining activity [%]
O=C1Cc2c([nH]c3ccc(Br)cc23)-c2ccccc2N1,71.1
O=C1Nc2ccccc2/C1=C\c1c(Cl)[nH]c2ccccc12,106
O=C1Nc2ccc(Br)cc2/C1=C/c1cc2c([nH]1)CCCC2,133
CN(C)S(=O)(=O)c1ccc2c(c1)/C(=C/c1cc3c([nH]1)CCCC3)C(=O)N2,95.1
c1ccc(-c2n[nH]c3c2oc2ccccc23)cc1,95.2
COc1ccc2c(c1)c(C1=C(c3c[nH]c4ccccc34)C(=O)NC1=O)cn2CCCN(C)C,81
O=c1cc(N2CCOCC2)oc2c(-c3ccccc3)cccc12,95.1
COc1cccc(-c2cc(=O)c3ccccc3o2)c1N,82.9
Oc1cccc(-c2nc(N3CCOCC3)c3oc4ncccc4c3n2)c1,75.3
Cc1ccc(S(=O)(=O)/C=C/C#N)cc1,88.4
CN1CCN(c2ccc3nc(-c4c(N)c5c(F)cccc5[nH]c4=O)[nH]c3c2)CC1,60.2
N#Cc1cnc2cnc(NCc3cccnc3)cc2c1Nc1ccc(F)c(Cl)c1,135
CCCCc1c(-c2ccc(OC)cc2)[nH]c2nccnc12,68
O=Nc1c(-c2c(O)[nH]c3cc(Br)ccc23)[nH]c2ccccc12,73.4
CCCNC(=O)Nc1ccc(Oc2ncnc3cc(OC)c(OC)cc23)cc1Cl,123
c1ccc2c(-c3ccncc3)c[nH]c2c1,136
COc1ccc(COc2ccc(Cc3cnc(N)nc3N)cc2OC)cc1,98.1
O=C(c1cc2cc(O)ccc2[nH]1)c1cc2cc(O)ccc2[nH]1,95.7
Cc1cc(Nc2cc(N3CCN(C)CC3)nc(Sc3ccc(NC(=O)C4CC4)cc3)n2)[nH]n1,77.5
O=C1NC(=O)c2c1c1c3ccccc3[nH]c1c1[nH]c3cc(Br)ccc3c21,84.5

# Sample 4
# Target: GABAA receptor benzodiazepine site
# Setting: off-target scan
SMILES,Ki [µM]
O=c1nc(-c2ccccn2)sc2ccccc12,0.934
Cc1ncc(-c2cc(Cl)ccc2F)cc1-n1c(=O)n(CC(N)=O)c2ccccc21,2.75
CC1CCN(c2ccnc(NCc3cn(C)cn3)n2)CC1,0.512
COCc1nc2cnc3cc(-c4c(C)noc4C)c(OC[C@H]4CCNC4)cc3c2n1[C@H](C)c1ccccc1,1.97
CN(C)[C@@H]1CCN(c2cc(-c3ccccc3)nc3ccnn23)C1,1.94
Cc1cc2c(-c3ccco3)cnc(N[C@H]3CCN(C)C[C@@H]3C(=O)NC3CCCCC3)c2[nH]c1=O,2.54
CCNC(=O)c1cc2c(N3CCOC[C@@H]3C)ccnc2[nH]1,1.53
CCNC(=O)c1cc2c(N3CCOC[C@H]3C)ccnc2n1C,0.224
CC(=O)c1c(NS(C)(=O)=O)c2cc(-c3ccc(Cl)cc3)c(-c3ccc(Cl)cc3Cl)nc2n(C)c1=O,1.66
Cc1nc(N2CC[C@@H](O)C2)ncc1-c1cc(C(F)(F)F)cc2[nH]ncc12,4.54
